Assay results pooled from the literature.
Parts stem from different laboratories: compare values within a part only.

Block 1 — method: EMSA with sequencing; molecule type: double-stranded DNA, one strand shown; matrix: in vitro; tested at: 10 and 20 nM; reference: negative control set to 0; reading: higher = stronger binding
Target: Hepatocyte nuclear factor 3-alpha (Foxa1, Mus musculus, UniProt P35582, residues 1-468, full length assumed)
Notes: whole designed probe, mean of two concentrations, ends assumed
Construct (chain): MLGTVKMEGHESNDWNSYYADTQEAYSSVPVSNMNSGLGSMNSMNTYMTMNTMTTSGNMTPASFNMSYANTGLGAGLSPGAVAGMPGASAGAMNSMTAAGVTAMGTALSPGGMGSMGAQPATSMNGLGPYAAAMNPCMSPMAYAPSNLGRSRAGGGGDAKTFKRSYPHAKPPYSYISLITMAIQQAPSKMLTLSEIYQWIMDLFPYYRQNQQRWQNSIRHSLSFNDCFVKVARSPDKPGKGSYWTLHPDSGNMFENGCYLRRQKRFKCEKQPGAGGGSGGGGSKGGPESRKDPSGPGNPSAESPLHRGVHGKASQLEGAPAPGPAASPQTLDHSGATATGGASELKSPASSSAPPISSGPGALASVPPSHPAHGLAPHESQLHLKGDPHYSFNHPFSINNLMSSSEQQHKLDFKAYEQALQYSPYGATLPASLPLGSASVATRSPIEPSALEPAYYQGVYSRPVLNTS
Under “normalised bound fraction”, `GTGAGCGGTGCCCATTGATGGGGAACATCTTCCCCCTCTTCCTTGCCCCACCAGCTCACCTACGGGGGTTATTTGCACAAAGGAAAATAAATAAAGCCGGCATTCGTTAACGCAGTTCACGCGCATACTGCTGTTTGCTCTGGATGAATCATGGTCCTTTGGCGACGCCAGGCTCCGGGAGAGCAAAGCACCGTGTCAGGGCCATGATCCGGGCTCGCCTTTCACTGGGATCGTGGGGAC` is recorded as 0.395 ratio.
For `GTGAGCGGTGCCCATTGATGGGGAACGCTTCTTAGCCCTGGTGCTATTTCTTGGCTTCCACACATTCTGTACAATTGCAGCCCTGACAGCTAATTTAGCTTCACTGTTGGTGAGTTTCTTGTTTGCTTTTGCTGCTGTCCAAATGATTCAAGGTGCTGAATGACGCCATCTGTATGTTGCTAGAGGCTGAGAGGGGGCTGGGAGGAAGCCTTAAGTCAATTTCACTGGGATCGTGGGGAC`, “normalised bound fraction” read 0.365 ratio.
Under “normalised bound fraction”, `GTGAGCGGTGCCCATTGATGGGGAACCACTAGCCAAGCAAATGCTACCTTTCCTAAATTACGCCGTGGTATTGTGTACGACAGCAGCAGGGTTGCTATTTTAAAATGGGATTGCGTAAAATAAACATGTGCCCAACAGGAAGTAGATGCTAAGTTGATGATTAATTGATGCTCTGGTACGGCCTCGTGCTTTCCAGTGCTTCCATTTGTGTGACGATCCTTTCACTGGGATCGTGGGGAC` is recorded as 0.242 ratio.
For `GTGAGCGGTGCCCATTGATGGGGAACCACCGCGCTCGCACGGCTTTGTCCGTGCTACAAAGCAGCCTGTTAAACTATTGGAACTAATGCGCCGCAGCTGCGCGAGTGACTTCTGCTGCTTATGTACATAAAAAGTCCTGGGGGAGGGCTGTAACCATCAGATGCCTGCTGCTGGGTTGTTTGGCTAGTCTTTCCATTTGCTTATTCCTGAATCCAAAGGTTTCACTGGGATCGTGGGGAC`, “normalised bound fraction” read 0.343 ratio.
`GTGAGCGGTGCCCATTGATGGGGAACGACAGTACATGTTTTAGGATTTTTGGACCACACAGTCTCTGTCACAATGACTCAGCTTTGCCATTGTAGCGTGCAAACAGCCACAAACCATATGCAAACAAATGTATGCCAAGAGGGTGTGGTTAAAACTTTATTTACAAAAGCAGGAGGACAGTGGAGTTGGCTTGCAGACAGTCATTTGCAGAGCCCTGATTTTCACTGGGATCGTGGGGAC` — result for “normalised bound fraction”: 0.426 ratio.
For `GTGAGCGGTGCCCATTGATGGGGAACTACTGAATAATAATTATTAAGCTATATACTTACAGAAAAGAGGATATGAAAATATTAATCAAGTATGACCTCTACTGGTAACTTTTATGCACTGTCATCTAGAGATCTAAGATTTTTATTGAGCTCCTACCATAAAGACACATCATTTCAATTCAACCATCAGTAGCCTCTACTTTTTAAAAAAATATTTTTATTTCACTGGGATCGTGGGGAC`, “normalised bound fraction” read 0.046 ratio.

Block 2 — method: RNA Bind-n-Seq; molecule type: RNA; matrix: in vitro; tested at: 365 nM; reference: no-protein control; reading: higher = stronger binding
Target: RNA binding protein fox-1 homolog 2, RRM domain, GST-SBP tag (RBFOX2, Homo sapiens, UniProt O43251-10, residues 100-194)
Notes: natural RNA segment, single round, ends assumed
Residues (chain): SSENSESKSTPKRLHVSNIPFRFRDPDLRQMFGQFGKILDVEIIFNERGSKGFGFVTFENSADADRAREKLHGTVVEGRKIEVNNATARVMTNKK
`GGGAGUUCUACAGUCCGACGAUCUUUAUGUCUGCUCUGAGCCUUAAAACACAGGUUGAAGAAGAAAAGAAAGGAAAAAAAAGUGAAAGUUGGUAUUUAUUUCUGUGCUUUAAUUGUCUCUGAAAAUAAUGACAUGGAAUUCUCGGGUGCCAA` — result for “RBNS enrichment (R)”: 0.636.
`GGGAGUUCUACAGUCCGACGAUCGUGAGAUACUGUAAAUUUGAGCUUUGUCAAACAUAUGGUAAGUUAAAGGGGAAGACCAGUGCUUCUUAAGACAGUGAGGGGUCUUCCUCCUGUGGCCAGGCGCUCCUGCAUGGAAUUCUCGGGUGCCAA` — result for “RBNS enrichment (R)”: 3.31.
Under “RBNS enrichment (R)”, `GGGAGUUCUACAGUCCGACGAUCUGGCGGAGCAUUGCCUUUCUAAGAACUGUGACUGUGGCCCAUCGAGACCUAGCCUGGUUUUCCCUUAGACAAUGAAUGAAGUGUGCCCAUUGAAAUAAAACUCAAACCACUGGAAUUCUCGGGUGCCAA` is recorded as 0.368.
`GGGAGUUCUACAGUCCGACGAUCAAGUCACAAAUUUGGUGUCUUUUCACCUUUUGACUGUUGACUUAAUAGCUCCUCUCACUCUGCCUGGAGAUACUUCCUGCCUCAGAUGAGGAGCCAGAAGAAACAGAGCCUGGAAUUCUCGGGUGCCAA`: “RBNS enrichment (R)” 0.238.
`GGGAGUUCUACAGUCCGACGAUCAUUCCUUCCUGUCGAGUUAAAUCUAAUCAGAUAUGAUGGAUGCCGGUAGUCCCAGCACUUGGAGAAGGCUGGAGGACCAGAAUUCAAGGCUAUCCUUGGCUACACAGUGAUGGAAUUCUCGGGUGCCAA`: “RBNS enrichment (R)” 0.338.
Under “RBNS enrichment (R)”, `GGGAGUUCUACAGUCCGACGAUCGACUCUAUAUAGCUGAUCAGUUUUUUCACCUGGAAGCAUUUGUUUCUACUUUGAUAUGACUGUUUUUCGGACAGUUUAUUUGUUGAGAGUGUGACCAAAAGUUACAUGUUUGGAAUUCUCGGGUGCCAA` is recorded as 0.427.
`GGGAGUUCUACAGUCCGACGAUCAAUAAAAUAACUAGAGGGAAACUUGGAUGCUAAAAUUCCAUAAGUAGAAAAAUCUUCCUGGCACUUGGUGUUUCUAUGUUAUUGAAAAAUGAUGUUCCAGAAAGAUUACUUGGAAUUCUCGGGUGCCAA` — result for “RBNS enrichment (R)”: 0.554.
Under “RBNS enrichment (R)”, `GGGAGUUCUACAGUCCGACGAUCAGACUACUUGACAGGACAUAAGAUGGAAACGCCAUCAGGAAAAGAUGUGGCUGAACAAGCAGGAAGAGUCCUGCUGUGUAAAUUGUAAAUGUCGAGUGCACUUGAUGAAGUGGAAUUCUCGGGUGCCAA` is recorded as 0.674.
For `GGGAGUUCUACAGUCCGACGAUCGAGGGUUUAGCUGCAGGGAAGGUCCUGGGUAGAUUUCCUUUUUAAGGUUCCCAGGGUGUGGAUGCCAGCCUCCACCCAUGCACCUGGGUACUGGGGCACUGUUACCUCCAUGGAAUUCUCGGGUGCCAA`, “RBNS enrichment (R)” read 0.567.

Block 3 — method: protein binding microarray; molecule type: double-stranded DNA, one strand shown; matrix: in vitro; tested at: not given; reference: not given; reading: higher = stronger binding
Target: Histone acetyltransferase KAT6A, winged helix 2, GST fusion (KAT6A, Homo sapiens, UniProt Q92794, residues 85-181)
Notes: 8-mer, flanks averaged, mean of 2 arrays, mostly near background
Target sequence (chain): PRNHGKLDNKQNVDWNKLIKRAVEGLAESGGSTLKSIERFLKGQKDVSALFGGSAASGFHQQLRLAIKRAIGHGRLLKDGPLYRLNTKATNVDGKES
For `CTTCTCGA`, the E-score was 0.013.
The E-score of `AGGTGCAG` is reported as 0.0321.
The E-score of `TAGGAGAA` is reported as -0.135.
`CGGAGGTA` gave an E-score of 0.00902.
`CCAGAGGC` gave an E-score of -0.0305.
For `TAAGAACA`, the E-score was 0.172.
The E-score of `AAACACGA` is reported as 0.0556.
`CCGAATAA` gave an E-score of 0.0851.
`AATCTCAA` gave an E-score of -0.0564.
For `GACTAACA`, the E-score was -0.0801.
For `CAAAACTA`, the E-score was 0.114.
`ATACTACA` has an E-score of 0.0225.
With `GGAGAAAA` the E-score was 0.0345.
For `ATGCAACC`, the E-score was 0.0672.
`CCACATTC` gave an E-score of -0.201.
`CATGTGAA` has an E-score of -0.168.
With `CATATTGG` the E-score was -0.0798.
For `TGCACCAA`, the E-score was 0.0602.
With `GCAATCCC` the E-score was 0.227.
With `AGGTACTC` the E-score was -0.058.
For `AGAAACTG`, the E-score was 0.0707.
The E-score of `CGACTACG` is reported as -0.123.
`GATGTGGC` has an E-score of -0.212.
With `CATTGGCG` the E-score was 0.0109.

Block 4 — method: RNA Bind-n-Seq; molecule type: RNA; matrix: in vitro; tested at: 200 nM; notes: whole 134-nt RNA, ends assumed; added: 150 mM LiCl; reference: input library; reading: higher = stronger binding; each molecule: 7-deaza-guanosine replaces G
Target: Ras GTPase-activating protein-binding protein 1, full length (G3BP1, Homo sapiens, UniProt Q13283)
UniProt Q13283, sequence (whole entry, looked up): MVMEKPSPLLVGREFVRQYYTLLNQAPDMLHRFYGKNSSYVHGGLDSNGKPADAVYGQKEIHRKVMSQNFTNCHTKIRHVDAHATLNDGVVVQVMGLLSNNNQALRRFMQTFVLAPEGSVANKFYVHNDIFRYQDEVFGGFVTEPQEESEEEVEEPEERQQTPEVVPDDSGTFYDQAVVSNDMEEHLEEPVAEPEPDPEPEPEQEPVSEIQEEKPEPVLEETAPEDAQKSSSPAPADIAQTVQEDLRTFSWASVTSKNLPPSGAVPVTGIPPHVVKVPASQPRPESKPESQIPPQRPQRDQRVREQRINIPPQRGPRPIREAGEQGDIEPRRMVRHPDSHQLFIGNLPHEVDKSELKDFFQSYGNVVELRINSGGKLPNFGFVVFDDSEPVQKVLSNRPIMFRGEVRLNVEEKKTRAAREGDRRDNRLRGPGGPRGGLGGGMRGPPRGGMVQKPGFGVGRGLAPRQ
`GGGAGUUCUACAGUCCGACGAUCUAACUUUAGAGGAGGAACUGAUGGAUAUGGCAGUGGACGUGGAUUUGGGGAUGGCUAUAAUGGGUAUGGAGGAGGACCUGGAGGUGGCAAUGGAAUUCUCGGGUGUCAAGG` has a log2 enrichment of -0.154.
`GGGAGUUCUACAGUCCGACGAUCUAGAGACUUCAGAUGGAUUUUAAAAUUGAACACACUUGGGAUGGUUUUCCAGUGAAGCAUGAGCCCGUAUUUAUCAGGCUGAAUCCAGGUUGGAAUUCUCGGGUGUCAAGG` has a log2 enrichment of -1.65.
The log2 enrichment of `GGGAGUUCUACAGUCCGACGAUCAUUUUUUGUAUCAAGUCCCUGAAUGGAAGUAUGACGUUGGGUCCCUCUGAAGUUUAAUUCUGAGUUCUCAUUAAAAGAAAUUUGCUUUCAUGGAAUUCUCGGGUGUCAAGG` is reported as -1.9.
`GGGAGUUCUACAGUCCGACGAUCAGUCCUGUGCUACACAUCGUAUGUACCGAAUCGGGUUUUGGGGUUUUGGGUUUUGGGAAAGUAUUAUGUUACGCCGUUCGGAUCUGCACUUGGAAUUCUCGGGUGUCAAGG` has a log2 enrichment of -0.452.
`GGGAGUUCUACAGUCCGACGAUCACCAUGCAGGUGGGCAUCUUUGGGAAGUGGGGCAAGGGGGGGAUAGGGAGGGGGGUAACACUUUGGGAACAGGUGGUCCCAAGUCGUUUCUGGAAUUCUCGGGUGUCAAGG` gave a log2 enrichment of 0.306.
For `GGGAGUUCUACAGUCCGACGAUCCUCAAGUCCUGUGCUACACAUCGUAUGUACCGAAUCGGGUUGGGGUUGGUUGGGAAAGUAUUAUGUUACGCCGUUCGGAUCUGCACUUCCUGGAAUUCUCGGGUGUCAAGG`, the log2 enrichment was 0.194.
`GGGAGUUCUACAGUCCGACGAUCUUUUCAAGGGGGCCCCAACUGGGGCCGCCUUGUAGCCUUCUUUGUCUUUGGGGCUGCACUGUGUGCUGAGAGUGUCAACAAGGAGAUGGAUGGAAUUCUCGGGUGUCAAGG` has a log2 enrichment of -0.542.
`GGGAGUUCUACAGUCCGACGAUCCCUGUGCUACACAUCGUAUGUACCGAAUCAAAUUUUUUUAAACCCCCAAACCCCCCCAAAAAAGUAUUAUGUUACGCCGUUCGGAUCUGCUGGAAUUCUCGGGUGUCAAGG` has a log2 enrichment of 0.57.
For `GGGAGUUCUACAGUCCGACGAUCCUCAAGUCCUGUGCUACACAUCGUAUGUACCGAAUCGGGGCGGGGCGGGCGGGGAAAGUAUUAUGUUACGCCGUUCGGAUCUGCACUUCCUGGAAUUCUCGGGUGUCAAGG`, the log2 enrichment was -0.185.
`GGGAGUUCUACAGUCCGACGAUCUCAAGUCCUGUGCUACACAUCGUAUGUACCGAAUCGGGAGGGUUUGGGUUUGGGAAAGUAUUAUGUUACGCCGUUCGGAUCUGCACUUCCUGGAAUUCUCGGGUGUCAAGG` has a log2 enrichment of -0.151.
`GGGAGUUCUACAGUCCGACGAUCCACGGACAACACGCACCCACACAGACACAGAGGGAAGGGGUUGGGAUGGGGACAGGGUGCACAGCAGGGCGGGGUAGGACCCCAGCCCCUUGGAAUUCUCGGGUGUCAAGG` has a log2 enrichment of 1.22.
